{"data": "Published values of several laboratories", "note": "Protocols differ between the studies behind these lines. ± marks the error that the study gave."}
{"Structure (SMILES)": "COc1ccc(-c2c(-c3ccc(C#N)c(F)c3)nc(N3CCC(N)CC3)n(C)c2=O)cc1F", "test": "measured: Nausea", "system": "neuroendocrine neoplasm patients", "setting": "oral, 60 mg, grade 3 to 4, dose expansion", "endpoint": "treatment-related adverse event incidence", "result": "0%"}
{"Structure (SMILES)": "N=C(CC(O)c1cc2c(F)cc(F)cc2c2cc(C(F)(F)F)ccc12)Nc1ccc(F)c(F)c1 (stereo not drawn)", "system": "human blood", "setting": "50 ng/mL, 30 min", "endpoint": "blood-to-plasma ratio", "result": "1.12 ± 0.05"}
{"Structure (SMILES)": "Cc1ncnc2c1ccn2[C@@H]1C[C@H](Oc2cc(C(F)F)c(F)c3c2CNCC3)[C@@H](O)[C@H]1O", "system": "patients", "setting": "dose not given, grade ≥3", "how to read": "baseline: patients", "endpoint": "Dyspnea incidence", "result": "0%"}
{"Structure (SMILES)": "CC(C)NCCCC[C@@H]1NC(=O)[C@H](Cc2ccc(O)cc2)NC(=O)[C@H](Cc2ccccc2)NC(=O)CC[C@H](C(=O)N[C@@H](CCCCNC(C)C)C(=O)N[C@@H](CCCCNC(=O)[C@H](CCC(=O)O)NC(=O)[C@H](CCC(=O)O)NC(=O)[C@H](CCC(=O)O)NC(=O)CN2CCN(CC(=O)O)CCN(CC(=O)O)CC2)C(N)=O)NC(=O)CNC(=O)[C@H](Cc2ccc3ccccc3c2)NC(=O)[C@@H](CCCNC(=N)N)NC1=O [fluorine-18 labelled]", "test": "PET/CT", "system": "female CB17 SCID beige mice, subcutaneous MM.1S xenograft, tumour", "setting": "intravenous, 1 h", "endpoint": "standardized uptake value", "result": "1.18 ± 0.1 SUV"}
{"Structure (SMILES)": "CN(C)C(=O)c1cc2cnc(Nc3ccc(N4CCNCC4)cn3)nc2n1C1CCCC1", "test": "measured: respiratory failure", "system": "HR+/HER2− advanced breast cancer patients", "setting": "oral, dose not given, not drug-related", "endpoint": "serious adverse event incidence", "result": "0.3%"}
{"Structure (SMILES)": "CO[C@H]1C[C@@H]2CC[C@@H](C)[C@@](O)(O2)C(=O)C(=O)N2CCCC[C@H]2C(=O)O[C@H]([C@H](C)C[C@@H]2CC[C@@H](OC(=O)NCCOCCOCCOCCOCCOCCOCCOCCOCCC(=O)N3CCc4cc(Cn5nc(-c6ccc7oc(N)nc7c6)c6c(N)ncnc65)ccc4C3)[C@H](OC)C2)C[C@@H](O)[C@H](C)/C=C(\\C)[C@@H](O)[C@@H](OC)C(=O)[C@H](C)C[C@H](C)/C=C/C=C/C=C/1C", "test": "phase 1 dose escalation, measured: fatigue", "system": "advanced solid tumour patients", "setting": "intravenous, 16 mg weekly, grade ≥3", "endpoint": "TRAE incidence", "result": "0%"}
{"Structure (SMILES)": "CCCCOc1nc(N)c2c(n1)N(Cc1cccc(CN3CCCC3)c1)CC(=O)N2", "system": "human", "setting": "oral, 2 mg, drug interaction trial", "endpoint": "deaths", "result": "0%"}
{"Structure (SMILES)": "O=c1ccc2ccc3occc3c2o1", "system": "rat plasma", "setting": "200 ng/mL, 2 weeks, -70 °C, post-preparative stability", "endpoint": "accuracy", "result": "104%"}
{"Structure (SMILES)": "[18FH]", "system": "BALB/c mouse, large intestine", "setting": "intravenous, 1 h", "endpoint": "tissue uptake", "result": "1.77 ± 0.57 %ID/g"}
{"Structure (SMILES)": "O=C(O)CCCOc1ccc(F)cc1-c1cc(-c2ccccc2C(F)(F)F)n(-c2ccccc2)n1", "test": "measured: Ca", "system": "Crl:CD(SD) rats, female, blood", "setting": "iv, 25 µg/kg, 14 days", "endpoint": "blood chemistry", "result": "9.7 ± 0.3 mg/dL"}
{"Structure (SMILES)": "CC(C)[C@@H]1NC(=O)CNC(=O)[C@H](CC(N)=O)NC(=O)[C@H](CCCNC(=N)N)NC(=O)[C@H](Cc2ccc(O)cc2)NC(=O)[C@H](C(C)C)NC(=O)[C@@H](NC(=O)[C@@H](NC(=O)[C@H](CC(N)=O)NC(=O)[C@H](Cc2c[nH]c3ccccc23)NC(=O)[C@H](C)NC(=O)[C@H](Cc2ccccc2)NC(=O)CN)C(C)C)CSSC[C@@H](C(=O)N[C@@H](Cc2cnc[nH]2)C(=O)N[C@@H](CCCNC(=N)N)C(=O)N[C@@H](CCCNC(=N)N)C(=O)N[C@@H](C)C(=O)N[C@@H](CC(N)=O)C(N)=O)NC(=O)[C@H](C(C)C)NC(=O)[C@H](CCCNC(=N)N)NC1=O", "system": "ICR mouse", "setting": "ip, 5 mg/kg", "how to read": "direction not given", "endpoint": "spasm score", "result": 0}
{"Structure (SMILES)": "CC(=O)c1c(C)c2cnc(Nc3ccc(C4CCN(CCS(C)(=O)=O)CC4)cn3)nc2n(C2CCCC2)c1=O", "system": "human, dose-escalation trial, plasma", "setting": "oral, 75 mg twice daily, day 21, multiple doses", "endpoint": "AUC(0-t)", "result": "2.63 µg·h/mL"}
{"Structure (SMILES)": "COc1ncccc1-c1cnn2ccc(N3CCN(C(=O)OC(C)C)CC3)nc12", "system": "rat, thermal hyperalgesia model, brain", "setting": "oral, 0.3 mg/kg, 180 min", "endpoint": "drug concentration", "result": "170 nM"}
{"Structure (SMILES)": "O=C(Nc1ccccc1)C1CCN(C(=O)Oc2cccnc2)CC1", "system": "healthy women", "setting": "oral, 60 mg, 7 days", "endpoint": "adverse event Dizziness", "result": "42.9%"}
{"Structure (SMILES)": "COc1ccc2nc3cc(Cl)ccc3c(Nc3cc(CN4CCCC4)c(O)c(CN4CCCC4)c3)c2n1", "system": "mouse, blood", "setting": "intraperitoneal, 28 mg/kg", "endpoint": "mean corpuscular haemoglobin concentration", "result": "377 g/L"}
{"Structure (SMILES)": "CCc1ccc(CC/C=C/c2ccc3c(c2)C(=O)CC3)cc1", "system": "Sprague-Dawley rat, male", "setting": "oral, 30 mg/kg/day, 14 days", "endpoint": "Calcium", "result": "2.4 mM"}
{"Structure (SMILES)": "C=CC(=O)N1CC[C@H](n2nc(C#Cc3cc(OC)cc(OC)c3)c3c(N)ncnc32)C1", "test": "measured: Constipation", "system": "healthy adults", "setting": "oral, grade ≥3, pooled treatments", "endpoint": "TEAE incidence", "result": "0%"}
{"Structure (SMILES)": "c1csc(CNc2cc[nH]n2)c1", "test": "micronucleus", "system": "CD-1 mouse Hsd:ICR(CD-1), male, bone marrow", "setting": "oral, 125 mg/kg/day, 3 days", "endpoint": "PCE to total erythrocyte ratio", "result": 0.506}
{"Structure (SMILES)": "COc1cc2c(Oc3ccc4[nH]c(C)cc4c3F)ccnc2cc1OCC1(N)CC1", "system": "paediatric recurrent refractory sarcoma", "setting": "12 mg", "endpoint": "grade 1 or 2 sinus bradycardia", "result": "0%"}
{"Structure (SMILES)": "Cc1noc(C)c1Cn1cc(N2C(=O)CN(Cc3cccc(O)c3)C2=O)cn1", "system": "CD-1 mouse, male, bone marrow", "setting": "500 mg/kg/day, 24 h", "endpoint": "PCE proportion", "result": "52.6%"}
{"Structure (SMILES)": "NCCCC[C@@H]1NC(=O)[C@@H](Cc2c[nH]c3ccccc23)NC(=O)[C@H](c2ccccc2)NC(=O)[C@@H]2C[C@@H](OC(=O)NCCN)CN2C(=O)[C@H](Cc2ccccc2)NC(=O)[C@H](Cc2ccc(OCc3ccccc3)cc2)NC1=O", "system": "healthy human volunteers", "setting": "600 µg twice daily", "endpoint": "subjects with discoloured faeces", "result": "25%"}
{"Structure (SMILES)": "CC[C@H](C)[C@H](N)C(=O)N[C@@H](CC(N)=O)C(=O)N[C@@H](CC(C)C)C(=O)N[C@@H](CCCCN)C(=O)N[C@@H](CCCCN)C(=O)N[C@@H](CC(C)C)C(=O)N[C@@H](C)C(=O)N[C@@H](CCCCN)C(=O)N[C@@H](CC(C)C)C(=O)NCCCC[C@H](NC(=O)[C@H](CC(C)C)NC(=O)[C@H](CCCCN)NC(=O)[C@H](C)NC(=O)[C@H](CC(C)C)NC(=O)[C@H](CCCCN)NC(=O)[C@H](CCCCN)NC(=O)[C@H](CC(C)C)NC(=O)[C@H](CC(N)=O)NC(=O)[C@@H](N)[C@@H](C)CC)C(=O)NCCCC[C@H](NC(=O)[C@H](CCCCNC(=O)[C@H](CC(C)C)NC(=O)[C@H](CCCCN)NC(=O)[C@H](C)NC(=O)[C@H](CC(C)C)NC(=O)[C@H](CCCCN)NC(=O)[C@H](CCCCN)NC(=O)[C@H](CC(C)C)NC(=O)[C@H](CC(N)=O)NC(=O)[C@@H](N)[C@@H](C)CC)NC(=O)[C@H](CC(C)C)NC(=O)[C@H](CCCCN)NC(=O)[C@H](C)NC(=O)[C@H](CC(C)C)NC(=O)[C@H](CCCCN)NC(=O)[C@H](CCCCN)NC(=O)[C@H](CC(C)C)NC(=O)[C@H](CC(N)=O)NC(=O)[C@@H](N)[C@@H](C)CC)C(=O)NCCC(=O)O", "system": "human red blood cells", "setting": "2 h, 37 °C", "endpoint": "hemolytic concentration", "result": "~15 µM"}
{"Structure (SMILES)": "CC(C)[C@@H]1CC[C@@H](C)C[C@@H]1O", "test": "acute oral toxicity OECD", "system": "Swiss albino mice, serum", "setting": "oral, 1000 mg/kg", "endpoint": "triglycerides", "result": "101 ± 5.06 mg/dL"}
{"Structure (SMILES)": "CC(C)Nc1ccnc(Nc2cccc(-c3cccnc3)c2)n1", "test": "measured: Creatinine", "system": "mouse, blood", "setting": "intraperitoneal, 10 mg/kg", "endpoint": "blood chemistry", "result": "0.3 mg/dL"}
{"Structure (SMILES)": "CCOC(=O)C(CCCOC)NC(=O)c1ccc(C2CC2)c(Cc2ccc(F)cc2)n1 (stereo not drawn)", "system": "aqueous buffer with DMSO", "endpoint": "kinetic solubility", "result": "0.6 µg/mL"}
{"Structure (SMILES)": "C[C@]1(CO)Cc2ncn(-c3ccc(C#N)c(Cl)c3)c2C(=O)O1", "system": "Japanese subjects", "setting": "3 mg single dose", "endpoint": "drug-related Dizziness incidence", "result": "0%"}
{"Structure (SMILES)": "C[C@@H](NC(=O)N1C(=O)[C@H](Cc2ccnc(N)c2)[C@H]1C(=O)O)C1CCCCC1", "system": "healthy adult Chinese volunteers", "setting": "continuous intravenous infusion, 1.0 mg/kg/h, 5-day infusion, CTCAE 5.0 grading", "endpoint": "incidence of urine erythrocyte positive", "result": "12.5%"}
{"Structure (SMILES)": "Cn1cc(-c2nc(N[C@@H]3CCCC[C@@H]3N)c(F)c3c2C(=O)NC3)cn1", "test": "measured: Melaena", "system": "patients with relapsed or refractory AML", "setting": "oral, dose not given, all doses", "endpoint": "hemorrhagic adverse events", "result": "7%"}
{"Structure (SMILES)": "C[C@]1(O)C[C@@](N)(c2ccc(-c3nc4n(c3-c3ccccc3)COc3ccncc3-4)cc2)C1", "system": "human, advanced or metastatic solid tumours", "setting": "24 mg intermittent, phase I dose escalation", "endpoint": "patients with Fatigue TEAE", "result": "50%"}
{"Structure (SMILES)": "Clc1ccc(-c2ccccc2)cc1", "system": "Sprague-Dawley rats, female, serum", "setting": "inhalation, 23 µg/rat, 0 h after exposure", "endpoint": "calcium", "result": "10 ± 2 mg/dL"}
{"Structure (SMILES)": "CC(C)[C@H](C(=O)O[C@H](C#N)c1cccc(Oc2ccccc2)c1)c1ccc(Cl)cc1", "test": "measured: CYP2C9", "system": "human, age 6 months", "endpoint": "enzyme contribution to clearance", "result": "20%"}
{"Structure (SMILES)": "CC(C)(O)c1cc(Nc2cc(Oc3cn(C4CC4)nc3C3CCOCC3)ccn2)ccn1", "test": "Thrombocytopenia", "system": "advanced cancer patients, dose escalation", "setting": "oral, dose not given, 3 weeks on/1 off, all causality grade ≥3", "endpoint": "treatment-emergent adverse events", "result": "0%"}
{"Structure (SMILES)": "CCCCCOc1ccc(-c2ccc(-c3ccc(C(=O)N[C@H]4C[C@@H](O)[C@@H](OCC[N+](C)(C)C)NC(=O)[C@@H]5[C@@H](O)[C@@H](C)CN5C(=O)[C@H]([C@@H](C)O)NC(=O)[C@H]([C@H](O)[C@@H](O)c5ccc(O)cc5)NC(=O)[C@@H]5C[C@@H](O)CN5C(=O)[C@H]([C@@H](C)O)NC4=O)cc3)cc2)cc1", "system": "adult patients in ICU, plasma", "setting": "intravenous, 400 mg loading, after first dose, geometric mean", "endpoint": "AUC(0-168 h)", "result": "700 µg·h/mL"}
